# Assay results pooled from the literature.
# Compare with care: the assays were run in different laboratories. Several values in a cell are separate wells, animals, samples, runs or records. Numbers after ± are the reported error.
Structure (SMILES),assay,test system,setting,scale,endpoint,result
CN1CC[C@@H](c2c(O)cc(O)c3c(=O)cc(-c4ccc(C(F)(F)F)cc4Cl)oc23)[C@@H]1CO,item: Syncope,relapsed B-cell malignancies,"oral, 100 mg, grade 3-4, intermittent dosing",,patients with adverse event,0%
CO[C@H]1C[C@@H]2CC[C@@H](C)[C@@](O)(O2)C(=O)C(=O)N2CCCC[C@H]2C(=O)O[C@H]([C@H](C)C[C@@H]2CC[C@@H](OC(=O)NCCOCCOCCOCCOCCOCCOCCOCCOCCC(=O)N3CCc4cc(Cn5nc(-c6ccc7oc(N)nc7c6)c6c(N)ncnc65)ccc4C3)[C@H](OC)C2)C[C@@H](O)[C@H](C)/C=C(\C)[C@@H](O)[C@@H](OC)C(=O)[C@H](C)C[C@H](C)/C=C/C=C/C=C/1C,,patients with advanced solid tumours,"intravenous, dose not given, grade ≥3",,incidence of Diarrhea TEAE,0%
CCCCCCCCCCCCCCCC(=O)N[C@@H](CCC(=O)NCCCC[C@H](NC(=O)[C@H](CC(=O)O)NC(=O)[C@H](CO)NC(=O)[C@@H](NC(=O)[C@H](Cc1ccccc1)NC(=O)[C@@H](NC(=O)CNC(=O)[C@H](CCC(N)=O)NC(=O)[C@H](CO)NC(=O)[C@@H](N)Cc1c[nH]cn1)[C@@H](C)O)[C@@H](C)O)C(=O)N[C@@H](CO)C(=O)N[C@@H](CCC(=O)O)C(=O)N[C@@H](Cc1ccc(O)cc1)C(=O)N[C@@H](CC(C)C)C(=O)N[C@@H](CC(=O)O)C(=O)N[C@@H](CO)C(=O)N[C@@H](CCC(=O)O)C(=O)N[C@@H](CCCNC(=N)N)C(=O)N[C@@H](C)C(=O)N[C@@H](CCCNC(=N)N)C(=O)N[C@@H](CC(=O)O)C(=O)N[C@@H](Cc1ccccc1)C(=O)N[C@H](C(=O)N[C@@H](C)C(=O)N[C@@H](Cc1c[nH]c2ccccc12)C(=O)N[C@@H](CC(C)C)C(=O)N[C@@H](CCC(=O)O)C(=O)N[C@@H](C)C(=O)NCC(=O)NCC(=O)O)C(C)C)C(=O)O,,"human, CrCl < 20 mL/min","sc, 100 µg single dose",,abdominal distension,0%
Oc1c(Cl)cc2c(c1Cl)Oc1cc(Cl)c(Cl)cc1O2,ultrafiltration,cow milk whey,20 nM nominal in whole milk,,dose fraction in permeate,18.6%
CC(C)C(=O)OC[C@H]1O[C@@H](n2ccc(NO)nc2=O)[C@H](O)[C@@H]1O,,rat maternal blood dialysate,"5 ng/mL, low concentration, three cycles, added: NHC 25 ng/mL",,freeze-thaw stability,100.1 ± 0.78%
CC(=O)c1c([O-])cc(C)oc1=O.[Na+],,"Wistar rat, male, serum","oral, 200 mg/kg, no CYP inhibitor",,clearance,0.983 ± 0.0833 mL/min/kg
Clc1ccc(-c2cc(Cl)c(Cl)cc2Cl)cc1Cl,,whole cow milk,50 nM nominal,,dose fraction in milk fat,81.1%
CC(=O)c1c(C)c2cnc(Nc3ccc(C4CCN(CCS(C)(=O)=O)CC4)cn3)nc2n(C2CCCC2)c1=O,,beagle dog,,,maximum tolerated dose,≥ 180 mg/kg
C[C@@H]1NC(=O)[C@H](CCCCNC(=O)CO/N=C/C(=O)NCCCC[C@@H]2NC(=O)[C@@H](Cc3ccccc3)NC(=O)[C@H](CC(=O)O)NC(=O)CNC(=O)[C@H](CCCNC(=N)N)NC2=O)NC(=O)CNC(=O)[C@@H]2CCCN2C(=O)[C@H](CCCCNC(=O)CO/N=C/C(=O)NCCCC[C@@H]2NC(=O)[C@@H](Cc3ccccc3)NC(=O)[C@H](CC(=O)O)NC(=O)CNC(=O)[C@H](CCCNC(=N)N)NC2=O)NC(=O)[C@H](CCCCNC(=O)CN2CCCNCCNCCCNCC2)NC(=O)[C@H](CCCCNC(=O)CO/N=C/C(=O)NCCCC[C@@H]2NC(=O)[C@@H](Cc3ccccc3)NC(=O)[C@H](CC(=O)O)NC(=O)CNC(=O)[C@H](CCCNC(=N)N)NC2=O)NC(=O)CNC(=O)[C@@H]2CCCN2C(=O)[C@H](CCCCNC(=O)CO/N=C/C(=O)NCCCC[C@@H]2NC(=O)[C@@H](Cc3ccccc3)NC(=O)[C@H](CC(=O)O)NC(=O)CNC(=O)[C@H](CCCNC(=N)N)NC2=O)NC1=O [copper-64 labelled],,"normal mice, intestine","intravenous, 0.74 MBq, 3 h post-injection",,tissue uptake,2.53 ± 0.54 %ID/g
Cc1ccc(S(=O)(=O)n2c(N)nc3ccccc32)cc1,,"mouse, plasma","intraperitoneal, 30 mg/kg, 20 min",,plasma concentration,5.24 ± 0.62 µM
COc1cc2c(Oc3ccc4[nH]c(C)cc4c3F)ccnc2cc1OCC1(N)CC1,,paediatric recurrent refractory sarcoma,8 mg,,grade 3 Rash,0%
CC(C)C[C@H](NC(=O)[C@H](CCCCN)NC(=O)OCC1c2ccccc2-c2ccccc21)C(=O)N[C@H](C(=O)N[C@@H](Cc1ccccc1)C(=O)N[C@@H](Cc1ccccc1)C(=O)N[C@@H](CCCCN)C(=O)NCC(=O)N[C@@H](Cc1ccccc1)C(=O)N[C@@H](C)C(=O)N[C@@H](Cc1c[nH]c2ccccc12)C(=O)N[C@@H](CC(N)=O)C(=O)N[C@H](C(=O)N[C@H]1CSSC[C@@H](C(=O)N[C@@H](Cc2c[nH]cn2)C(=O)N[C@@H](CCCNC(=N)N)C(=O)N[C@@H](CCCNC(=N)N)C(=O)N[C@@H](C)C(=O)N[C@@H](CC(N)=O)C(N)=O)NC(=O)[C@H](C(C)C)NC(=O)[C@H](CCCNC(=N)N)NC(=O)[C@H](C(C)C)NC(=O)CNC(=O)[C@H](CC(N)=O)NC(=O)[C@H](CCCNC(=N)N)NC(=O)[C@H](Cc2ccc(O)cc2)NC(=O)[C@H](C(C)C)NC1=O)C(C)C)C(C)C,HPLC,mouse mammary gland homogenate,"2560 µM, 16.00 h, 37 °C, 50 mg/mL tissue",,remaining peptide,56.8% and 54% and 52.1%
O=C1Nc2cc3[nH]nc(-c4ccncc4)c3cc2CN1Cc1ccccc1,CTCAE v4.03,advanced solid tumour patients,"intravenous, 0.9 mg/kg, schedules 1/2",,patients with increased GGT,0%
Oc1ccc(CSCc2ccc(O)cc2)cc1,,ICR mice male,"oral, 1500 mg/kg, day 15, acute toxicity",reference: day 1,body weight gain,6.42 ± 2.01 g
COc1ncccc1-c1cnn2ccc(N3CCN(C(=O)OC(C)C)CC3)nc12,,"mouse nerve ligation model, brain","oral, 10 mg/kg, 120 min after last dose, repeat dosing day 1",,drug concentration,7.5 µM
NC(=O)[C@H]1CCN(c2ncnc(N)c2F)C[C@@H]1N1CCC[C@@H](Nc2cc(Cl)cc(C(F)(F)F)c2)C1=O,,B-cell malignancy patients,"oral, 164 mg twice daily, dose",,grade ≥3 neutropenia,0%
CC(C)Nc1ccnc(Nc2cccc(-c3cccnc3)c2)n1,item: total bilirubin,"mouse, blood","intraperitoneal, 5 mg/kg",,blood chemistry,0.3 mg/dL
C=CC(=O)Nc1cc(Nc2nccc(Nc3cc(Cl)c(F)cc3C(C)(C)O)n2)c(OC)cc1N1CC[C@@H](N(C)C)C1,treatment-emergent adverse events,human,"oral, 50 mg, phase I clinical trial",,incidence of vomiting,16.7%
COc1ncnn2ccc(-c3cnc4nc(C)n(Cc5nnc([C@@H](C)F)o5)c4c3)c12,,human,"oral, dose not given, grade 5",,patients with hyponatremia,0%
N=C(N)NCCNC(=O)C1(Nc2ccccc2)CCN(Cc2ccccc2)CC1,,"Sprague-Dawley rats, both sexes","oral, 50 mg/kg, mean of both sexes",,elimination rate constant,0.00119 ± 0.000111 s⁻¹
CCc1ccc(CC/C=C/c2ccc3c(c2)C(=O)CC3)cc1,,"Sprague-Dawley rat, female","oral, 120 mg/kg/day, 14 days",,MCHC,333 g/L
C[C@]1(CO)Cc2ncn(-c3ccc(C#N)c(Cl)c3)c2C(=O)O1,,"human, plasma",10 mg multiple doses,reference: dose-proportional exposure,linearity index,107%
C[C@]1(O)C[C@@](N)(c2ccc(-c3nc4n(c3-c3ccccc3)COc3ccncc3-4)cc2)C1,,"human, advanced or metastatic solid tumours","dose not given, all patients",,patients with serious adverse event,52.9%
O=S(=O)(Nc1ccccc1)c1ccc(NC(=S)Nc2ccccc2)cc1,,"male mouse, blood","oral, 20 mg/kg daily, 14 days",,albumin level,3 g/dL
CCCCCOc1ccc(-c2ccc(-c3ccc(C(=O)N[C@H]4C[C@@H](O)[C@@H](OCC[N+](C)(C)C)NC(=O)[C@@H]5[C@@H](O)[C@@H](C)CN5C(=O)[C@H]([C@@H](C)O)NC(=O)[C@H]([C@H](O)[C@@H](O)c5ccc(O)cc5)NC(=O)[C@@H]5C[C@@H](O)CN5C(=O)[C@H]([C@@H](C)O)NC4=O)cc3)cc2)cc1,,"adult ICU patients, mITT, serum","dose not given, EOT",,albumin,29.2 g/L
CC(C)c1nc(N(C)S(C)(=O)=O)nc(-c2ccc(F)cc2)c1/C=C/[C@@H](O)C[C@@H](O)CC(=O)O,,healthy human subjects,"oral, dose not given, study CL-0537 safety set",,incidence of Rash,0%
CC(C)[C@@H]1CC[C@@H](C)C[C@@H]1O,acute oral toxicity OECD,"Swiss albino mice, serum","oral, 300 mg/kg",,HDL cholesterol,25.7 ± 8.97 mg/dL
CCS(=O)(=O)Nc1ccc(Oc2ccc(F)cc2F)c(-c2cn(C)c(=O)c3[nH]ccc23)c1,fungal sepsis leading to discontinuation,"human, relapsed/refractory AML","oral, dose not given",,treatment-emergent adverse events,5%
C=CC(=O)N1CC[C@H](n2nc(C#Cc3cc(OC)cc(OC)c3)c3c(N)ncnc32)C1,,"human patients, all","oral, dose not given, QD regimen, adverse drug reaction",,"hyperphosphatemia incidence, grade ≥3",4.7%
C[C@@H]1OC(=O)NN=C1c1ccc(-c2ccc(F)cc2)c(C(F)(F)F)c1,"phase I trial, item: Cough worst grade 1",human patients,20 mg loading then 1 mg daily,,patients with adverse event,50%
CC[C@H](C)[C@H](NC(=O)[C@H](CC(C)C)NC(=O)[C@H](Cc1c[nH]c2ccccc12)NC(=O)[C@H](CCC(N)=O)NC(=O)[C@@H](NC(=O)[C@H](Cc1ccccc1)NC(=O)[C@H](C)NC(=O)[C@H](CCCCNC(=O)COCCOCCNC(=O)COCCOCCNC(=O)CC[C@H](NC(=O)CCCCCCCCCCCCCCCCCCC(=O)O)C(=O)O)NC(=O)[C@H](CCC(N)=O)NC(=O)[C@H](C)NC(=O)[C@@H](NC(=O)[C@H](CCCCN)NC(=O)[C@H](CC(=O)O)NC(=O)[C@H](CC(C)C)NC(=O)C(C)(C)NC(=O)[C@@H](NC(=O)[C@H](CO)NC(=O)[C@H](Cc1ccc(O)cc1)NC(=O)[C@H](CC(=O)O)NC(=O)[C@H](CO)NC(=O)[C@@H](NC(=O)[C@H](Cc1ccccc1)NC(=O)[C@@H](NC(=O)CNC(=O)[C@H](CCC(=O)O)NC(=O)C(C)(C)NC(=O)[C@@H](N)Cc1ccc(O)cc1)[C@@H](C)O)[C@@H](C)O)[C@@H](C)CC)[C@@H](C)CC)C(C)C)C(=O)N[C@@H](C)C(=O)NCC(=O)NCC(=O)N1CCC[C@H]1C(=O)N[C@@H](CO)C(=O)N[C@@H](CO)C(=O)NCC(=O)N[C@@H](C)C(=O)N1CCC[C@H]1C(=O)N1CCC[C@H]1C(=O)N1CCC[C@H]1C(=O)N[C@@H](CO)C(N)=O,,human,"subcutaneous, 5 mg, Cockcroft-Gault creatinine clearance",,AUC(0-tlast) slope versus CLcr,-118 ng.h/mL per mL/min
C=CC(=O)N1CCC(CNc2ncnc(N)c2-c2ccc(Oc3ccccc3)cc2)CC1,,dog,GLP pivotal toxicology,,NOAEL,250 mg/kg
O=C(Nc1ccccc1)C1CCN(C(=O)Oc2cccnc2)CC1,,healthy women,"oral, 20 mg, 7 days",,adverse event Asthenia,0%
CCCC1CCC(C2CCC(c3ccc(F)c(F)c3)CC2)CC1 (stereo not shown),,"rat, fetus","1000 ng/mL in perfusate, middle dose, mixture of 21 LCMs",,fetal accumulation,0.102 ± 0.063 ng/g
O=C(O)CCCOc1ccc(F)cc1-c1cc(-c2ccccc2C(F)(F)F)n(-c2ccccc2)n1,,"female Crl:CD(SD) rats, uterus","intravenous, 25 µg/kg, 1 d",,organ weight,0.47 ± 0.11 g
CN[C@@H](C)C(=O)N[C@H]1CN(S(=O)(=O)c2cccc(S(=O)(=O)N3CC[C@H]4CC[C@@H](C(=O)NC(c5ccccc5)c5ccccc5)N4C(=O)[C@@H](NC(=O)[C@H](C)NC)C3)c2)CC[C@H]2CC[C@@H](C(=O)NC(c3ccccc3)c3ccccc3)N2C1=O,,patients advanced solid tumours,"dose not given, all grades all doses",,treatment-related asthenia,3.6%
[O-][S+]1CCc2nc(N3CCC(c4ncc(Cl)cn4)CC3)nc(NC3(CO)CCC3)c21 (stereo not shown),item: gastrointestinal disorders,healthy male humans,36 mg single dose,,adverse event incidence,33.3%

# A few entries again:
Structure (SMILES),assay,test system,setting,scale,endpoint,result
COc1ncnn2ccc(-c3cnc4nc(C)n(Cc5nnc([C@@H](C)F)o5)c4c3)c12,,human,"oral, dose not given, grade 5",,patients with hyponatremia,0%
N=C(N)NCCNC(=O)C1(Nc2ccccc2)CCN(Cc2ccccc2)CC1,,"Sprague-Dawley rats, both sexes","oral, 50 mg/kg, mean of both sexes",,elimination rate constant,0.00119 ± 0.000111 s⁻¹
CCc1ccc(CC/C=C/c2ccc3c(c2)C(=O)CC3)cc1,,"Sprague-Dawley rat, female","oral, 120 mg/kg/day, 14 days",,MCHC,333 g/L
C[C@]1(CO)Cc2ncn(-c3ccc(C#N)c(Cl)c3)c2C(=O)O1,,"human, plasma",10 mg multiple doses,reference: dose-proportional exposure,linearity index,107%
C[C@]1(O)C[C@@](N)(c2ccc(-c3nc4n(c3-c3ccccc3)COc3ccncc3-4)cc2)C1,,"human, advanced or metastatic solid tumours","dose not given, all patients",,patients with serious adverse event,52.9%
